Measurements gathered from unrelated publications.
Compare with care: the assays were run in different laboratories. Values joined by “and” are separate records of one study, mostly repeats; a detail may differ.
Target: Discoidin domain-containing receptor 2 (DDR2, Homo sapiens, UniProt Q16832)

CNC(=O)Nc1ccc(Cc2ccc(NC(=O)c3nc(N)sc3-c3ccccc3)cc2)cc1  selectivity ratio (competition binding; baseline: DDR2 over DDR1): 0.91
CN1CCN(Cc2ccc(-c3ccc(CO[C@H]4CCC[C@@H]4NC(=O)c4cc(-c5cnn(C)c5)cnc4N)cc3)cc2)CC1  inhibition (enzyme activity, inhibitor; 0.1 µM): 5%
CNC(=O)C(Cc1ccc(I)cc1)NC(=O)CNC1CCN(C(=O)OC(C)(C)C)CC1 (stereo not drawn)  selectivity ratio (competition binding; baseline: DDR2 over DDR1): 3.5
Nc1ncc2c(n1)-c1c([nH]c3ccc(C4=CCOCC4)cc13)CCC2  remaining binding (binding, competition with immobilised ligand; 1 µM): 100%
Cc1cnc2nc1Nc1cccc(c1)COC/C=C/COCc1cc(ccc1OCCN1CCOCC1)N2  remaining binding (binding; 0.1 µM): 95%
NC(=O)C[C@H]1CCc2sc3ncnc(O[C@H]4CC[C@H](N5CCOCC5)CC4)c3c21  inhibition (enzyme activity, inhibitor; 10 µM): 7%
CNC(=O)N1CCN(c2ccc(NC(=O)c3nc(N)sc3-c3ccccc3)cc2C(F)(F)F)CC1  selectivity ratio (competition binding; baseline: DDR2 over DDR1): > 25
Nc1ncc(-c2cc(-c3cnn(CC(F)(F)F)c3)ncc2F)nc1C(=O)NC1CNCC(F)C1 (stereo not drawn)  remaining activity (enzyme activity; 1 µM; baseline: DMSO control): 98.6%
C=CC(=O)Nc1cccc(-c2cnc3[nH]cc(C(=O)NC(C)(C)C)c3n2)c1  inhibition (enzyme activity, inhibitor; 0.1 µM): 0%
C=CC(=O)N1CCc2ccc(-n3c(=O)ccc4cnc5ccc(-c6cnn(C)c6)cc5c43)cc21  remaining binding (KINOMEscan; 1 µM; baseline: DMSO control): 93%
CNC(=O)c1ccc(C)c(NC(=O)c2cnn3ccccc23)c1  selectivity ratio (competition binding; baseline: DDR2 over DDR1): 0.42
C=CC(=O)N1CCCC(n2c(=O)c3ncccc3n(Cc3ccc(Oc4ccccc4)cc3)c2=O)C1 (stereo not drawn)  remaining binding (cell-free assay, competition with immobilised ligand; 1 µM): 68%
CNC(=O)Nc1ccc(Cc2ccc(NC(=O)c3cc(C(F)(F)F)cc(S(C)(=O)=O)c3)cc2)cc1  selectivity ratio (competition binding; baseline: DDR2 over DDR1): 30
COCC12C(=O)NC3C4(C(OC)CC1O)C1CC5(O)C(OC)C(O)C(OC(C)=O)(C1C5OC(=O)c1ccccc1)C3(O)C(OC)C24 (stereo not drawn)  remaining activity (kinase activity, inhibitor, ProQinase kinase profiling; 25 µM; baseline: control): 98% and 99%
COc1cc(Nc2nc(C)cc(-c3cnn4nc(OC)ccc34)n2)cc(C(F)(F)F)c1  remaining activity (inhibitor; 1 µM; baseline: control): 65%
CNC1C[S+]2CC[S+]3CC[S+](C1)[Ru-4]321([N]=C=S)[n]2c3ccc(OC)cc3c3c4c(c5cc(F)c[n+]1c5c32)C(=O)NC4=O (stereo not drawn)  remaining binding (KinomeScan; 0.1 µM; baseline: untreated): 100%
COc1c(OCCCN2CCOCC2)ccc2c1N=C(NC(=O)c1cnc(N)nc1)N1CCN=C21  remaining activity (kinase activity, inhibitor; 1 µM; baseline: untreated control): 106%
CCn1cc(C(=O)O)c(=O)c2c(N)c(F)c(NC3CCCCC3)cc21  inhibition (kinase activity; 0.1 µM, together with: ATP at Km): -13.1%
CNC(=O)C[C@H](Cc1ccc(C#N)cc1)NC(=O)c1cc(-c2ccc(CN[C@H](C)c3ccc(C)cc3)o2)ccc1Cl  activity vs control (enzyme activity, inhibitor; 1 µM): 117%
COc1c(Cl)cccc1Nc1c(-c2ccncc2C#C[C@@]2(C)CCCN2C(=O)/C=C/CN(C)C)[nH]c2c1C(=O)NCC2  remaining binding (cell-free assay, competition with immobilised ligand; 3 µM): 41%
Cc1cccc(O[C@H]2CCC[C@@H](C(C)CNCc3ccncc3)C2)c1 (relative stereo)  inhibition (cell-free assay; 1 µM): 0%

Repeated from above:
Cc1cccc(O[C@H]2CCC[C@@H](C(C)CNCc3ccncc3)C2)c1 (relative stereo)  inhibition (cell-free assay; 1 µM): 0%
CNC(=O)C[C@H](Cc1ccc(C#N)cc1)NC(=O)c1cc(-c2ccc(CN[C@H](C)c3ccc(C)cc3)o2)ccc1Cl  activity vs control (enzyme activity, inhibitor; 1 µM): 117%
